Published values of several laboratories.
Every numbered part comes from another study and shows a few of its results, in no order. Substitutions count along the parent as printed.

Study 1 — target: CCNB1, cyclin fold, Cln2 fusion (human); technique: yeast growth competition, sequencing; matrix: yeast; setting: strong parent motif; relative to: not given; direction: higher = stronger binding; starting sequence: viral docking peptide; KGVKRKLFAEDSS
Change | normalised enrichment score
R5M | 1.16
K6R | 3.24
L7V | 0.0597
G2H | 1.71
F8P | -0.0519
V3K | 0.463
A9Q | 2.19
E10S | 1.03
S12F | 2.6
K4S | 2.45
G2W | 1.05
S12K | 1.61
R5V | 1.11
G2A | 2.07
K4M | 1.5
R5N | 0.147
D11C | 1.53
K4V | 5.02
V3F | 0.751
V3H | 0.451
L7H | 0.472
F8G | 0.368
K6I | 0.774
F8D | -0.0765
G2I | 1.53

Study 2 — technique: competition protein-binding microarray; molecule type: double-stranded DNA, one strand shown; matrix: in vitro; concentration: 2 µM; together with: Cbf1 competitor, 0.05 µM; direction: higher = stronger binding; constant ends, left off below: … GTCTTGATTCGCTTGACGCTGCTG
Target: Phosphate system positive regulatory protein PHO4, full length, GST-tagged (PHO4, Saccharomyces cerevisiae, UniProt P07270, residues 1-312)
Setting: whole 60-bp probe, lowest competitor level
Target sequence (chain): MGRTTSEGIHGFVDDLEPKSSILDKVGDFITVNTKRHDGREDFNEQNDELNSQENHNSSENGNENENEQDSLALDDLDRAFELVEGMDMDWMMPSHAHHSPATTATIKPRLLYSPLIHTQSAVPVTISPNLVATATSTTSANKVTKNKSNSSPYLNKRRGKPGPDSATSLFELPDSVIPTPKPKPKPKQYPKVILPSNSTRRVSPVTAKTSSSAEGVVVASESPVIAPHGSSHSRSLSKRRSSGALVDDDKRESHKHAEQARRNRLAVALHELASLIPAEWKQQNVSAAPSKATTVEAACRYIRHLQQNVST
Strand | fluorescence intensity
CGTCCTAGTGATTGGGTCGTGGGTGCCATGAGGAAG | 10600 a.u.
CACCTCCCCCTAAATCTCGTGATGGGAGTTTCAAGT | 6670 a.u.
CCTTCGTTGTTATCGTCCGTGTCGGTATCCACTTCC | 4990 a.u.
GTATCCGCACCGCAGTTCGTGACAAGTGCCTGCGTT | 5620 a.u.
CCGGCCCGGAATATACGCGTGGTCGCGCTCTTTCGG | 9340 a.u.
CATACCCAACCTTGGTGAGTGGGTGAAGATATTTGT | 4550 a.u.
GCAAGAAGTAACTGGCGTGTGCACAAGAATACTTGT | 6700 a.u.
ATGCTAAGAGATACGCTCGTGATGGCTTGGCGCAAT | 8070 a.u.

Study 3 — technique: RNA Bind-n-Seq; molecule type: RNA; matrix: in vitro; concentration: 200 nM; setting: whole 134-nt RNA, ends assumed; together with: 150 mM KCl; relative to: input library; direction: higher = stronger binding
Target: Ras GTPase-activating protein-binding protein 1, full length (G3BP1, Homo sapiens, UniProt Q13283)
UniProt Q13283, sequence (whole entry, looked up): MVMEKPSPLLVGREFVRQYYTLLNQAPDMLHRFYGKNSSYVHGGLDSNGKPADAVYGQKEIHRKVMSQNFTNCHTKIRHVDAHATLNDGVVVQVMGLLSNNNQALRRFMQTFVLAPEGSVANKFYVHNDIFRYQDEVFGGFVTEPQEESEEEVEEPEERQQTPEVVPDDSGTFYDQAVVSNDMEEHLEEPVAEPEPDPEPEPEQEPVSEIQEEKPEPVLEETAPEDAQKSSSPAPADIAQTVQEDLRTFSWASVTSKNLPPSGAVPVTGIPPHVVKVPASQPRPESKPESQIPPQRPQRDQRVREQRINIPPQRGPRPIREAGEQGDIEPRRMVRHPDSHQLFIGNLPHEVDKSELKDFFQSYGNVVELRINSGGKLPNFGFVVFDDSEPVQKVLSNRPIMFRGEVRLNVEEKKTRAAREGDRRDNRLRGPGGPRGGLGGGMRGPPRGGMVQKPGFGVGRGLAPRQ
Constant ends, left off below: GGGAGUUCUACAGUCCGACGAUC … UGGAAUUCUCGGGUGUCAAGG
Strand | log2 enrichment
UCAAGUCCUGUGCUACACAUCGUAUGUACCGAAUCGGGUUUUUGGGUGGGUGGGAAAGUAUUAUGUUACGCCGUUCGGAUCUGCACUUCC | 0.534
UGUGCUACACAUCGUAUGUACCGAAUCGGGCCCCCCCGGGGCCCCCCCGGGGCCCCCCCGGGGAAAGUAUUAUGUUACGCCGUUCGGAUC | -1.97
UCCUGUGCUACACAUCGUAUGUACCGAAUCGGGGAAAAAAAGGGGUUUUUGGGGAGGGGAAAGUAUUAUGUUACGCCGUUCGGAUCUGCA | 0.705
UUUCAGGGGAGCUCUUUGCUCAGGCCCCGGUGGAUCAGUUUCCUGGCACAGCUGUGGAGAGUGUGACGGAUUCCAGCAGGUACUUCGUGA | -1.49
UGGCCCUGGUGGCAUGCGGGGAGGAAGAUGUGGCCUCAUGGAUCGUGGUGGUCCCGGUGGAAUGUUCAGAGGUGGCCGUGGUGGAGACAG | 0.298
UGGCCCUGGUGGCAUGCGGGGAGGAAGAGGUGGCCUCAUGGAUCGUGGUGGUCCCGGUGGAAUGUUCAGAAGUGGCCGUGGUGGAGACAG | 0.442
ACCAUGCAGGUGGGCAUCUUUGGGAAGUGGGGCAAGGGGGGGAUAGGGAGGGGCGUAACACUUUGGGAACAGGUGGUCCCAGGUCGUUUC | 1.21
UCCUCAAGUCCUGUGCUACACAUCGUAUGUACCGAAUCGGCGGCGGGGCGGGAAAGUAUUAUGUUACGCCGUUCGGAUCUGCACUUCCAG | 0.307

Study 4 — target: tungstate, free oxyanion; technique: microfluidic competitive inhibition; matrix: in vitro, cell-free expressed; concentration: not given; direction: lower = stronger binding
Setting: derived from inhibition constants, unchanged parent 2230 nM
Starting sequence: PafA, mature enzyme, eGFP fusion (Elizabethkingia meningoseptica, UniProt Q9KJX5); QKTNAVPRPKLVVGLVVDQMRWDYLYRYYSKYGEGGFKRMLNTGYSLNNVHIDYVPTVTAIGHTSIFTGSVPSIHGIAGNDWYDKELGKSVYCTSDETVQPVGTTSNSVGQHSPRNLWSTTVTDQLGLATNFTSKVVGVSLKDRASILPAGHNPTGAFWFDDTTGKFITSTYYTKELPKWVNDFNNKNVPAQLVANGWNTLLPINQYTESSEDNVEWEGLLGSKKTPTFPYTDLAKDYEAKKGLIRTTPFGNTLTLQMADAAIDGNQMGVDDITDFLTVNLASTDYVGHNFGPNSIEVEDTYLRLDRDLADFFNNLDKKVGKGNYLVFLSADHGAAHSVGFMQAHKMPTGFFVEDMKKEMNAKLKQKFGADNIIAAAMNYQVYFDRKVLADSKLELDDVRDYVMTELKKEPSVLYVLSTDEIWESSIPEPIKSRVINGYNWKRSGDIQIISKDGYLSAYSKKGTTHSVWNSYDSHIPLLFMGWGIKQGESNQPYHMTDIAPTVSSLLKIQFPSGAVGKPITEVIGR
Change | oxyanion analog dissociation constant [µM]
T301V | 1.95
C93G | 3.64
E410G | 2.48
N48V | 4.9

Study 5 — technique: universal PBM; molecule type: double-stranded DNA, one strand shown; matrix: in vitro; concentration: 600 nM; direction: higher = stronger binding
Target: Sal-like protein 4, full length isoform A (SALL4, Homo sapiens, UniProt Q9UJQ4, residues 1-1053)
UniProt Q9UJQ4, sequence (whole entry, looked up): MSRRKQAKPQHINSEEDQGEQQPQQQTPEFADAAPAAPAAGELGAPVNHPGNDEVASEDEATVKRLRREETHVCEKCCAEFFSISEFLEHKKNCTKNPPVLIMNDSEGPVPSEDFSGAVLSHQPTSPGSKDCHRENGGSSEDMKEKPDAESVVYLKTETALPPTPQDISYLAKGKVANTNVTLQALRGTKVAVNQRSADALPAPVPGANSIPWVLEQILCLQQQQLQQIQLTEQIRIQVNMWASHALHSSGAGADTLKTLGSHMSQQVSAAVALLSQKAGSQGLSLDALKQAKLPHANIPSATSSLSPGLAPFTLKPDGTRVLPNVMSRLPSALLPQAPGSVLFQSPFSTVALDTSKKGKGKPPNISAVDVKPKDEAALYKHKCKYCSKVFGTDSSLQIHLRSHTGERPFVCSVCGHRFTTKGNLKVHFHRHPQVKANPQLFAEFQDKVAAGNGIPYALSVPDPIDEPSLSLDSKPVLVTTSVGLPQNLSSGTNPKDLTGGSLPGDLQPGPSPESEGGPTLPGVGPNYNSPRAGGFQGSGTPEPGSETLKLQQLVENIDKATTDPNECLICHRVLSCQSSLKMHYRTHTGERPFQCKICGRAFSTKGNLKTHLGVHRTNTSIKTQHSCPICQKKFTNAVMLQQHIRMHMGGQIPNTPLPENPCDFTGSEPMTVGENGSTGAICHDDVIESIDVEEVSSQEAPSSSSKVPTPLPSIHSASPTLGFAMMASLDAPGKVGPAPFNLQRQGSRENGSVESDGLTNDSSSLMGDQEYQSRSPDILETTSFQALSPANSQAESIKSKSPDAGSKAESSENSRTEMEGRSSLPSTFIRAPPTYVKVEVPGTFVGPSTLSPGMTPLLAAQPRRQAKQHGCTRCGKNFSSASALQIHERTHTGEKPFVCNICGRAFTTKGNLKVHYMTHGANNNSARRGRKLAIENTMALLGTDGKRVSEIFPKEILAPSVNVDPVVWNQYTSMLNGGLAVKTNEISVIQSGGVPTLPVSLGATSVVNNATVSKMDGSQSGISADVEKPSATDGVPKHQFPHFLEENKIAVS
Setting: 8-mer, flanks averaged, mean of replicates
Strand | E-score
GCTCGCAA | -0.0432
GGACAGTA | 0.12
CAAGGACC | -0.189
AGGTGGAT | -0.0162
CAAGTAAC | 0.192
AGAGCAAG | -0.116
AATTCAGG | 0.0968
GGCCCGAA | -0.209
